Results pooled from the literature.
Numbered parts are unrelated; each lists some results of a single study.

Sample 1
Target: Histone acetyltransferase KAT6A, winged helix 1, GST fusion (KAT6A, Homo sapiens, UniProt Q92794, residues 1-85)
Method: protein binding microarray
Form: double-stranded DNA, one strand shown
Matrix: in vitro
Tested at: not given
Setting: 8-mer, flanks averaged, mean of 2 arrays, mostly near background
Relative to: not given
Reading: higher = stronger binding
Residues (chain): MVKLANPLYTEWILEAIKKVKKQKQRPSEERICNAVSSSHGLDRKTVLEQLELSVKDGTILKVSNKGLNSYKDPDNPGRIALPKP
| Sequence | E-score |
| --- | --- |
| CTGGAAGA | -0.105 |
| AATCTTGC | -0.13 |
| CTTAGAAG | -0.215 |
| ACCGGTAG | 0.206 |
| AACACGGG | 0.24 |
| ACTCCCCC | 0.0581 |

Sample 2
Target: RNA binding protein fox-1 homolog 2, RRM domain, GST-SBP tag (RBFOX2, Homo sapiens, UniProt O43251-10, residues 100-194)
Method: RNA Bind-n-Seq
Form: RNA
Matrix: in vitro
Tested at: 365 nM
Setting: natural RNA segment, single round, ends assumed
Relative to: no-protein control
Reading: higher = stronger binding
Residues (chain): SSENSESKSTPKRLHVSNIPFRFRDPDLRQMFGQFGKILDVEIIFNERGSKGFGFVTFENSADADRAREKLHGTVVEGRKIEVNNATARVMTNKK
| Sequence | RBNS enrichment (R) |
| --- | --- |
| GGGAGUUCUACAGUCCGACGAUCAAUUUUGGAAAAAAAGAAAUGUGAAGGGUCAACUCCAACGUAUGUGGUUAUCUGUGAAAGUUGCACAGCGUGGCUUUUCCUAAACUGGUGUUUUUCCCCCGCAUUUGGUGUGGAAUUCUCGGGUGCCAA | 0.443 |
| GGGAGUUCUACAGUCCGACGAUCUGGAUCUGGGCGAAGUGUCACUUUUUAGUGCCUAAAGUCCUAUUGUUUCUCUGUGCCCUAAGAGCACAUUGUUUAUUAGCCAGGGUGGAGCGUUUUCGACCUUAUUAAACUGGAAUUCUCGGGUGCCAA | 0.271 |
| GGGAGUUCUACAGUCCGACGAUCCACCACGGUCGACGACGGCUGGAGGGACGUUUCAGAGGCGAGUCCUGGGUGGCUCCUCGCCUUGGGGGCUCCUGGCCCUGAGGCUGGCGGUGGCCGCAUGCCGGCGCGUGUGGAAUUCUCGGGUGCCAA | 2.82 |
| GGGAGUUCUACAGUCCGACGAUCUGUUACUACUUAGUCACAAACCCCACAUUAUUCCAGUUUGGAAUUACUUAUUAAGGAGAAUUGGAAAUACAUAUGCCCAUGCUUAAAUUUUAUAGCUUUAAUUUGUGUUAUGGAAUUCUCGGGUGCCAA | 0.428 |
| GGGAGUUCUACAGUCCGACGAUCCUUUUUCUUUUCCUGGGGACUUGUUUCCAUUAAAUGAGAGUAAUUAAAAUCGCUUGUAAAUGAGGGCAUACAAGCAUUUGCAACAAAUAUUCAAAUAGAGGCUCACAGCGUGGAAUUCUCGGGUGCCAA | 0.739 |
| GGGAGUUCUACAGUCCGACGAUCUGGCCCUGCCUUUACCAUAUCAGUGACAGAGAGAGGCUGCUUCAGGUCUGAGGCUAUCCCUCAGCCAUGCAUAAAGUCCAAGAGAACCAACUGGCUCCUGGUCUCUAGCCUGGAAUUCUCGGGUGCCAA | 0.476 |

Sample 3
Target: RING finger protein unkempt homolog, zinc fingers 1-6, GST-SBP tag (UNK, Homo sapiens, UniProt Q9C0B0, residues 30-357)
Method: RNA Bind-n-Seq
Form: RNA
Matrix: in vitro
Tested at: not given
Setting: RNA with constant flanks, human and mouse sites, ends assumed
Relative to: input RNA pool
Reading: higher = stronger binding
Residues (chain): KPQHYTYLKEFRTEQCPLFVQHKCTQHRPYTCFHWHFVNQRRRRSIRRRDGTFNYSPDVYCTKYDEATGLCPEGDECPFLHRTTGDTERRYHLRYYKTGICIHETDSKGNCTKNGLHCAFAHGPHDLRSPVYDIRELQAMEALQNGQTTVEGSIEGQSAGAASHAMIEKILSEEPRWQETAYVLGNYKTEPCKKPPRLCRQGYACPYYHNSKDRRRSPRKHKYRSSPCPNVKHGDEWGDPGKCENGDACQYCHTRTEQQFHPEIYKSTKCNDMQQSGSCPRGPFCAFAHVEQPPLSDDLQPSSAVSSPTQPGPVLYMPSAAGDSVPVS
| Sequence | bound/input enrichment |
| --- | --- |
| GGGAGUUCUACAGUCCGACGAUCUCAUCUACAUUUGCAAUUCCCCAAGAGCUAGAGAAAAGUGUACAGAUGUUUGAAUUGUUUUAUAGCCAGCAUUUCAGUGGACGGAAGCUGACAUGGUUGCAUUAUCUCUGUACAGGUGAACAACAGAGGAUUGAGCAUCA | 0.906 ratio |
| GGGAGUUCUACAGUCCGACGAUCGAGGCGGAGCAAAGCAACGGGAAGAUAAACGGGAGCACCUUCAAUAAAGAUGAAUCAAAGGAAGAAAAGAAAGAAGAGGAGGAGGAAUUAAAUUUUAAUGAAGACAUUCUGUGUCCUCAUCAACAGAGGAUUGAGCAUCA | 0.415 ratio |
| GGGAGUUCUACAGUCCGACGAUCCAGCAGUCAUCUCUCGGUAGGGAUUCACAGGGUCAUGGGCGUGACCUGUCUGCAGCAGGAAUAGGCCUUCUUGCUGCUGCUACCCAGUCUUUAAGUAUGCCAGCAUCUCUUGGAAGGAUGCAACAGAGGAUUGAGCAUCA | 0.0723 ratio |
| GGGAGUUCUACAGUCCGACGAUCUUCAGCCCUUUCACCUAACAGGCCCAUAUUCGGGCCUUUGCCUGACCAAAGAGAAGAACCGUAUGUUCCCUUUACUGCACGGCCUUUAUCCUUCUGGGCCCCUGGGGCGGGGACCUGAGCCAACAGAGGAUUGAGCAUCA | 0.0787 ratio |
| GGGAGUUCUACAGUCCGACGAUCGCAUGUUCUUAUGGACACUAUGAAGUUGCAGAACUUCUUGUCAAGCAUGGAGCAGUAGUCAAUGUCGCUGACUUGUGGAAGUUCACACCUUUACAUGAAGCUGCAGCAAAAGGAAAAUAUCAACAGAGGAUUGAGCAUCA | 0.173 ratio |
| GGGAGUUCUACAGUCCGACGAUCUUGGACCUGGAUGACCAUGGUGGCAGAACCUUCCUCAGGGUCCUGCUCCACUUGACAAUGCAUGACUACCCACCCCUGGUGUCUGGGGCCCUGCAGCUCCUCUUUCGGCACUUCAGCCAGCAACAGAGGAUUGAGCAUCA | 0.108 ratio |
| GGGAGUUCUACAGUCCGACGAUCCUGAGCAGAUCUGAACUUAUGUCAGUCACUCCCAAUACAGGGAUGAGUCUCUUUAUCAUAAACUUUGAGGAAGGAAGAGAAGUUAAACCAACGGUUCAGUGUAUUUGUAUGAACCUACAGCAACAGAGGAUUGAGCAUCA | 0.142 ratio |

Single results of other studies
| Substance | target | assay | test system | conditions | how to read | quantity | result |
| --- | --- | --- | --- | --- | --- | --- | --- |
| PhoQ, residues 284 288 289 292 302 303 TYGVAM | PhoP, residues 12 14 15 18 19 TPWLV (Escherichia coli, UniProt P23836) | Sort-seq, measured: YFP reporter | E. coli | PhoQ-PhoP variant library, with: 10 µM Mg2+ | relative to: high Mg2+ state, higher = stronger signaling | fold induction | 15.6 |
